Measurements of several laboratories.
Protocols differ between the studies behind these lines. Several values in a cell are separate wells, animals, samples, runs or records. Numbers after ± are the reported error.
UniProt P46109, sequence (whole entry, looked up): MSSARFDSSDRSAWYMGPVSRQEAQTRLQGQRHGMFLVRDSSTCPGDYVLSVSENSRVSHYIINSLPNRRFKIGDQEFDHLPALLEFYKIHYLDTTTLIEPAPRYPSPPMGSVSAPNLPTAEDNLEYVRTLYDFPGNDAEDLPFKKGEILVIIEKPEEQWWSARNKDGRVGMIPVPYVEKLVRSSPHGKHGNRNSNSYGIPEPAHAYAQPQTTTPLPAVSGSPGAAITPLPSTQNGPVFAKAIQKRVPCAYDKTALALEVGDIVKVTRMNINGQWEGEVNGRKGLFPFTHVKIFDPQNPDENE

With `Cc1nc(-c2ccc(OCC(C)C)c(C#N)c2)sc1C(=O)O` the maximum inhibition was 21.1% (human coronavirus OC43; virus-induced cell killing; MRC-5; screen).
`CN1CCN(S(=O)(=O)c2cc([N+](=O)[O-])ccc2N(CCOS(C)(=O)=O)CCOS(C)(=O)=O)CC1` — result for “EFS delay (T-C)”: 30.8 days (NSG mice, sample BA PDX; intraperitoneal, 25 mg/kg weekly x3; relative to: vehicle).
For `Cc1cn(-c2cc(NC(=O)c3ccc(C)c(Nc4nccc(-c5cccnc5)n4)c3)cc(C(F)(F)F)c2)cn1`, the CDR-SOB score was 7.9 ± 3 (Alzheimer's disease patients; 300 mg, 12 months, group mean; direction not given).
With `CC(=O)c1c(C)c2cnc(Nc3ccc(C4CCN(CCS(C)(=O)=O)CC4)cn3)nc2n(C2CCCC2)c1=O` the T/C was 18% (tumour growth; rat, MCF7 breast cancer model; oral, 20 mg/kg twice daily, 28 days).
The maximum inhibition of `CCCC(CCC)C(=O)O` is reported as 0.567% (human coronavirus OC43; virus-induced cell killing; MRC-5; maximum over 10 doses).
For `Cc1cn([C@H]2O[C@@H](CO[P@@](=O)(N[C@@H](C)C(=O)OC(C)C)Oc3ccccc3)[C@H](O)[C@H]2F)c(=O)[nH]c1=O`, “change in HBV DNA” read 2.75 log10 IU/mL (adults with chronic hepatitis B; 50 mg, day 28; relative to: baseline).
For `CCCCCCCCCC(=O)N[C@@H](Cc1c[nH]c2ccccc12)C(=O)N[C@H](CC(N)=O)C(=O)N[C@@H](CC(=O)O)C(=O)N[C@@H]1C(=O)NCC(=O)N[C@@H](CCCN)C(=O)N[C@@H](CC(=O)O)C(=O)N[C@H](C)C(=O)N[C@@H](CC(=O)O)C(=O)NCC(=O)N[C@H](CO)C(=O)N[C@@H]([C@H](C)CC(=O)O)C(=O)N[C@@H](CC(=O)c2ccccc2N)C(=O)O[C@@H]1C`, “fusion time constant” read 18 ± 9 min (calcein leakage; DOPC/DOPG/CHOL liposomes; concentration not given, with: 40 mM CaCl2).
For `CC[C@H](C)[C@@H]1NC(=O)[C@@H]2CCCN2C(=O)[C@H](CC(C)C)NC(=O)[C@H](CC(C)C)NC(=O)CNC(=O)[C@@H](NC(=O)[C@@H](NC(=O)[C@H](CC(=O)O)NC(=O)CNC(=O)[C@@H](NC(=O)[C@H](C)NC(=O)CNC(=O)[C@H](CCCCN)NC(=O)[C@H](CC(C)C)NC(=O)[C@H](CC(C)C)NC(=O)[C@H](CCCCN)NC(=O)CNC(=O)[C@@H](NC(=O)[C@@H](N)CC(C)C)C(C)C)C(C)C)C(C)C)CSSC[C@@H](C(=O)O)NC1=O`, “log2 fold change” read 1.26 (RNA-seq, refers to: Fam228a; mouse, traumatic brain injury model, frontal cortex and hippocampus; dose not given; relative to: TBI alone).
`O=C(O)/C=C/C(=O)O.Oc1cccc2[nH]cc(CCNCc3ccccc3)c12`: “body temperature change” -2.2 ± 0.5 °C (C57BL/6J mice; subcutaneous, 30 mg/kg; relative to: pre-session baseline).
`CCCCCCCCCCCCCCCC(=O)N[C@H]1C[C@@H](O)[C@@H](O)NC(=O)[C@@H]2[C@@H](O)[C@@H](C)CN2C(=O)[C@H]([C@@H](C)O)NC(=O)[C@H]([C@H](O)[C@@H](O)c2ccc(O)cc2)NC(=O)[C@@H]2C[C@@H](O)CN2C(=O)[C@H]([C@@H](C)O)NC1=O`: “fusion time constant” 68 ± 14 min (calcein leakage; DOPC/DOPG/CHOL liposomes; concentration not given, with: 20 wt% PEG-8000).
`COc1ccc(CCC2CCCC(CCc3ccc(OC)cc3)N2C[C@@H](O)CO)cc1.Cl` (stereo in doubt) gave a DOPAC overflow of 1080 ± 315 pg/30 mL/mg (rat striatal slices; 100 µM, 30 min, no methamphetamine).
`Cc1cccc(C)c1NC(=O)C1CCCCN1` (stereo not drawn) has a motor block of 14.7 ± 9 % MPE (Sprague-Dawley rat, male; sciatic nerve injection, 30 mM, 30 min).
With `C[C@H]1CN(c2n[nH]c3nc(N[C@H]4CC[C@H](NS(=O)(=O)CCC(F)(F)F)CC4)ncc23)CCO1` the relative abundance was 1.03 (Crk-like protein (Homo sapiens, UniProt P46109); competitor, Kinobeads competition; human cell extract; 0.16 µM; relative to: vehicle).
For `CS(=O)(=O)c1ccc(-c2nnc(/C=C/c3nnc(-c4ccc(C#N)cc4)o3)n2-c2ccccc2Cl)nc1`, “normalized enrichment score” read -1.8 (RNA-seq GSEA, refers to: HALLMARK_MYC_TARGETS_V2; organoids, small intestinal, Apc Q1405X, mouse; dose not given, knockout organoids; relative to: DMSO, direction not given).
With `COc1ccc(-c2ccc3ncc4c(c3c2)n([C@@H]2CCN(C)CC2(F)F)c(=O)n4C)cn1` the survival was 23.4 ± 0.5 days (mouse, sample A orthotopic PDX; 7.5 mg/kg x 10, no radiation).
For `C[C@H]1O[C@@H](O[C@H]2CC[C@@]3(C)[C@@H](CC[C@]4(C)[C@@H]3C=C[C@]35OC[C@@]6(CCC(C)(C)C[C@H]63)[C@@H](O)C[C@]54C)[C@]2(C)CO)[C@H](O)[C@@H](O[C@@H]2O[C@H](CO)[C@@H](O)[C@H](O)[C@H]2O)[C@H]1O`, the NAD+/NADH ratio was 2.2 and 2.36 and 2.65 and 2.28 (mouse, chronic-plus-binge ethanol, hepatic SIRT1 knockdown, liver; dose not given, high dose).
The survival time of `N.N.O=C([O-])C1(C(=O)[O-])CCC1.[Pt+2]` is reported as 74.7 days (mice, OVCAR-4 xenograft; dose not given, up to 110 days).
Under gene expression, `O=S(=O)(O)C(F)(F)C(F)(F)C(F)(F)C(F)(F)C(F)(F)C(F)(F)C(F)(F)C(F)(F)F` is recorded as “decreased” (RNA-seq pathway analysis, refers to: drug degradation pathway genes; liver spheroids; top non-cytotoxic, 10 d).
The serum HDL-C of `CCCCC1(CCCC)CN(c2ccccc2)c2cc(SC)c(OCC(=O)N[C@@H](C(=O)NCC(=O)O)c3ccccc3)cc2S(=O)(=O)C1` is reported as 51.6 mg/dL (refers to: HDL cholesterol; human, serum; 20 mg once daily, day 13).
`COc1c(O)cc(O)c2c(=O)cc(-c3ccccc3)oc12` — result for “inhibition of OS hydrolysis”: greater than 50% (rat plasma 10%; 100 µg/mL, with: OS 1 µg/mL).
Under “patients with partial response”, `C=CC(=O)Nc1cc(Nc2ncc(Cl)c(Nc3ccccc3C(=O)C(=O)N(C)C)n2)c(OC)cc1N1CCN(C)CC1` is recorded as 33.3% (RECIST v1.1 best response; human EGFR T790M NSCLC; oral, 100 mg/day, per-protocol set).

A few entries again:
`O=C(O)/C=C/C(=O)O.Oc1cccc2[nH]cc(CCNCc3ccccc3)c12`: “body temperature change” -2.2 ± 0.5 °C (C57BL/6J mice; subcutaneous, 30 mg/kg; relative to: pre-session baseline).
